{"data": "Assay results pooled from the literature", "CDK5 with p25": "Cyclin-dependent kinase 5, with p25 (CDK5, Homo sapiens, UniProt Q00535)", "B1": "human septin-2; sequence looked up; chain MSKQQPTQFINPETPGYVGFANLPNQVHRKSVKKGFEFTLMVVGESGLGKSTLINSLFLTDLYPERVIPGAAEKIERTVQIEASTVEIEERGVKLRLTVVDTPGYGDAINCRDCFKTIISYIDEQFERYLHDESGLNRRHIIDNRVHCCFYFISPFGHGLKPLDVAFMKAIHNKVNIVPVIAKADTLTLKERERLKKRILDEIEEHNIKIYHLPDAESDEDEDFKEQTRLLKASIPFSVVGSNQLIEAKGKKVRGRLYPWGVVEVENPEHNDFLKLRTMLITHMQDLQEVTQDLHYENFRSERLKRGGRKVENEDMNKDQILLEKEAELRRMQEMIARMQAQMQMQMQGGDGDGGALGHHV", "note": "Lines come from different studies, so protocols differ. “And” joins repeats or separate records; there may be more than shown. ± gives the spread as reported.", "sequence of UniProt Q64663 (whole entry, unmodified, looked up)": "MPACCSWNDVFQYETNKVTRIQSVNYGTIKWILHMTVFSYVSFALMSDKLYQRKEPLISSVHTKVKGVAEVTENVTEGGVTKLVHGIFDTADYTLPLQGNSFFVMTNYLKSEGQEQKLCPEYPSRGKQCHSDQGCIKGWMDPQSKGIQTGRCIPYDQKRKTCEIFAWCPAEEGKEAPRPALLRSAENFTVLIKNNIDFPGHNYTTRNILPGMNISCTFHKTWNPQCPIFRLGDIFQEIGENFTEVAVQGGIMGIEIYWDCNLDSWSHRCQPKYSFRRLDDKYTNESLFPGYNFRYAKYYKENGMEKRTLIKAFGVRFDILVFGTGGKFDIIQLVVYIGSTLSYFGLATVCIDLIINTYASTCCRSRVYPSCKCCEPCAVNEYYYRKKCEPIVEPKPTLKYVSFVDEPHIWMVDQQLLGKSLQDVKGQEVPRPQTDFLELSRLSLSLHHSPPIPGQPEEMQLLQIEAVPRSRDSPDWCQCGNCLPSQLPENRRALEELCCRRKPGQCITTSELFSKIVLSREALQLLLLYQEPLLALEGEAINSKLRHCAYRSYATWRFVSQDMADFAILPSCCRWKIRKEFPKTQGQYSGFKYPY", "sequence of UniProt Q00535 (whole entry, looked up)": "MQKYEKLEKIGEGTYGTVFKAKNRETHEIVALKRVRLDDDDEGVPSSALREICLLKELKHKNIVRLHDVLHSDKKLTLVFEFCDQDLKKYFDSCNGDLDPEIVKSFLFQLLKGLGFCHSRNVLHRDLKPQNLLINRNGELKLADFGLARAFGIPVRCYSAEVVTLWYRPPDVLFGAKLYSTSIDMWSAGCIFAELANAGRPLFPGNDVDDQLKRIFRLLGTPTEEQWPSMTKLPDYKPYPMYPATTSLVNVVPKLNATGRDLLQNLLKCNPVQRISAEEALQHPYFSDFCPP", "sequence of UniProt Q5ANA3 (whole entry, looked up)": "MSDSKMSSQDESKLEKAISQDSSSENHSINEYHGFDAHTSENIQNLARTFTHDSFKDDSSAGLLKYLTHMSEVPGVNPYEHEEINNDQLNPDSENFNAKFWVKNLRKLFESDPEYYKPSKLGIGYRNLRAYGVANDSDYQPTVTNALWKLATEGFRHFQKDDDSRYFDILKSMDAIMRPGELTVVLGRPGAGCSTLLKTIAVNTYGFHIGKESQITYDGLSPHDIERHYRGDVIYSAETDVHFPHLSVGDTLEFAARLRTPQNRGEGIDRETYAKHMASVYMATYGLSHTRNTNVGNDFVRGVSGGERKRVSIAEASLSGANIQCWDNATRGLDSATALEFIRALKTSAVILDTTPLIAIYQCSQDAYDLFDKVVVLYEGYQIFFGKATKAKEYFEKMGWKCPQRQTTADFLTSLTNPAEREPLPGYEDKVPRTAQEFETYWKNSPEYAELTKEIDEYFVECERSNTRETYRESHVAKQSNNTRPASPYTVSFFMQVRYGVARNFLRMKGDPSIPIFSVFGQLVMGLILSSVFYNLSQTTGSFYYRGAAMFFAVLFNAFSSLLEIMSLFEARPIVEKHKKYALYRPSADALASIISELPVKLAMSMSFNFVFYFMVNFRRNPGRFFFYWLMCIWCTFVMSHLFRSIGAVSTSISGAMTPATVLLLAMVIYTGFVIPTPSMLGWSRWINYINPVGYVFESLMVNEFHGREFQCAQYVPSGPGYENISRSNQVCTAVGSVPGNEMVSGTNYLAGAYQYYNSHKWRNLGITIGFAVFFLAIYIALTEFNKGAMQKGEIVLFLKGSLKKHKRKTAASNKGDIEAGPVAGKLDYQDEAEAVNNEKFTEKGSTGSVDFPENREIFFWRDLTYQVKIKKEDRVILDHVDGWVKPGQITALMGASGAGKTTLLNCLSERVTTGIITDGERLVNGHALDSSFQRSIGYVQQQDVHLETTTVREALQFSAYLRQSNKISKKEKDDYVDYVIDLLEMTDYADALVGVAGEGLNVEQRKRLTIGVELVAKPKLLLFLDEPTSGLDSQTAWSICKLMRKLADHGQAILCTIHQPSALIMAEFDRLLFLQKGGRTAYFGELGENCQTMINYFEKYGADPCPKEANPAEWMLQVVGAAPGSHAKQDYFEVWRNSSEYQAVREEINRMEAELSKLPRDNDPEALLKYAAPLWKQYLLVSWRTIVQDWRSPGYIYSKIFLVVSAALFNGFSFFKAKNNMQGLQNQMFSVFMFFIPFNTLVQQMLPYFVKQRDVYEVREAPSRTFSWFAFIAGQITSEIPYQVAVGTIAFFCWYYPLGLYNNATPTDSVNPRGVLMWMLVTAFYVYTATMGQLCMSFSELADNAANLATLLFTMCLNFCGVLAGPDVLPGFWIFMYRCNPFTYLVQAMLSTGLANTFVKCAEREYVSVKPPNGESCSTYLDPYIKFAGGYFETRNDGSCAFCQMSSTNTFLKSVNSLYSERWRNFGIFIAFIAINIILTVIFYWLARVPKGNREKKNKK"}
{"Molecule": "KDAFWDRCLSVINLMSSKMLQINA", "tested on": "CDK5 with p25", "assay": "phosphotransferase activity, radiometric", "system": "peptide", "setting": "concentration not given, 10% DMSO, together with: histone substrate", "scale": "reference: p5-WT peptide", "endpoint": "activity change", "value": "20%"}
{"Molecule": "milbemycin oxime", "tested on": "CDR1 (Candida albicans, UniProt Q5ANA3)", "assay": "binding, microscale thermophoresis", "setting": "9.77 nM", "endpoint": "fraction bound", "value": "16.9%"}
{"Molecule": "11-deoxycorticosterone", "tested on": "CYP11B2 (human)", "assay": "substrate binding, stopped-flow global kinetic fitting", "system": "purified enzyme", "setting": "3-state conformational selection model, together with: 40-fold excess adrenodoxin", "endpoint": "rate constant k-1", "value": "2.09 ± 0.121 s⁻¹"}
{"Molecule": "human ME2 A65V mutant", "assay": "enzyme activity, activator, NADH absorbance", "system": "recombinant enzyme", "setting": "range over 0 to 5 mM, pH 7.4", "scale": "reference: wild type", "endpoint": "activation fold", "value": 0.7}
{"Molecule": "B1 (human septin-2)", "tested on": "PP6C (human)", "assay": "co-immunoprecipitation, IP-MS", "system": "CYB5R4 knockout cells", "setting": "concentration not given", "scale": "reference: CYB5R4 knockout over parental", "endpoint": "log2 fold change", "value": -0.66}
{"Molecule": "human ME2 E59N", "assay": "enzyme activity, NADH absorbance", "setting": "with fumarate 3 mM, together with: L-malate varied", "endpoint": "Hill coefficient", "value": "1 ± 0.01"}
{"Molecule": "human pyruvate kinase PKM", "tested on": "CYB5R4 knockout human cells", "assay": "PP4 interaction, 3xFLAG-PP4C IP-MS", "setting": "concentration not given", "scale": "reference: CYB5R4 KO over parental", "endpoint": "log2 fold change", "value": 1.33}
{"Molecule": "KEAFWDRCLSVINLMSSKMLQGNA", "tested on": "CDK5 with p25", "assay": "phosphotransferase activity, radiometric", "system": "peptide", "setting": "concentration not given, 10% DMSO, together with: histone substrate", "scale": "reference: p5-WT peptide", "endpoint": "activity change", "value": "71%"}
{"Molecule": "human ME2 T60S", "assay": "enzyme activity, NADH absorbance", "setting": "without fumarate, together with: L-malate varied", "endpoint": "Hill coefficient", "value": "1.68 ± 0.08"}
{"Molecule": "KEAFWDRCLSVINLASSKMLQINA", "tested on": "CDK5 with p25", "assay": "phosphotransferase activity, radiometric", "system": "peptide", "setting": "concentration not given, 10% DMSO, together with: histone substrate", "scale": "reference: p5-WT peptide", "endpoint": "activity change", "value": "60%"}
{"Molecule": "BzATP", "tested on": "P2X purinoceptor 7 (P2rx7, Rattus norvegicus, UniProt Q64663, Q143A)", "assay": "ion current, agonist, two-electrode voltage clamp", "system": "Xenopus oocytes", "setting": "11 µM", "endpoint": "normalized current", "value": "0.605 and 0.772 and 0.504"}
{"note": "A few entries again:"}
{"Molecule": "11-deoxycorticosterone", "tested on": "CYP11B2 (human)", "assay": "substrate binding, stopped-flow global kinetic fitting", "system": "purified enzyme", "setting": "3-state conformational selection model, together with: 40-fold excess adrenodoxin", "endpoint": "rate constant k-1", "value": "2.09 ± 0.121 s⁻¹"}
